Experimental data pooled from the literature.
Every numbered part comes from another study and shows a few of its results, in no order. Positions count from the first letter of the parent shown.

Set 1 — target: CCNB3, cyclin fold, Cln2 fusion (human); technique: yeast growth competition, sequencing; matrix: yeast; setting: weak parent motif; relative to: not given; direction: higher = stronger binding
Parent: E2F1 docking peptide (human); PPVKRRLDLETDH
Change | normalised enrichment score
PPVKRRLDLDTDH [E10D] | 1.03
RPVKRRLDLETDH [P1R] | 0.22
LPVKRRLDLETDH [P1L] | 1.08
PPVKKRLDLETDH [R5K] | -0.152
PPVKVRLDLETDH [R5V] | 0.194
PPVKFRLDLETDH [R5F] | 0.281
FPVKRRLDLETDH [P1F] | 0.874
PPVKRRLALETDH [D8A] | 0.287
PPVKRRLDLETMH [D12M] | 0.449
PPVKHRLDLETDH [R5H] | -0.353
PPVKRRLDLYTDH [E10Y] | 0.219
PPVFRRLDLETDH [K4F] | 0.356
PPVKRRLTLETDH [D8T] | 0.953
PPVKRRLDLETDM [H13M] | 0.414
PPVKRRLFLETDH [D8F] | 1.49
PPVKRTLDLETDH [R6T] | 0.821
PPPKRRLDLETDH [V3P] | 0.822
PPVKRRLDLERDH [T11R] | 0.237
PPVKRRLDLETTH [D12T] | 0.137
PPLKRRLDLETDH [V3L] | -0.822
PPVKRRLDLEPDH [T11P] | 0.927
PPVKRRLDLETWH [D12W] | -0.00883
YPVKRRLDLETDH [P1Y] | 1.24
PPVKIRLDLETDH [R5I] | -0.116
PPVKRRLDLVTDH [E10V] | 0.42

Set 2 — technique: RNA Bind-n-Seq; molecule type: RNA; matrix: in vitro; tested at: 365 nM; relative to: no-protein control; direction: higher = stronger binding
Target: RNA binding protein fox-1 homolog 2, RRM domain, GST-SBP tag (RBFOX2, Homo sapiens, UniProt O43251-10, residues 100-194)
Setting: natural RNA segment, single round, ends assumed
All sequences stand within: GGGAGUUCUACAGUCCGACGAUC … UGGAAUUCUCGGGUGCCAA
Target sequence (chain): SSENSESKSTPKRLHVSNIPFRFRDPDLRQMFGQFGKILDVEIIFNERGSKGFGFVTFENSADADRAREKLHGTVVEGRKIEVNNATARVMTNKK
Strand | RBNS enrichment (R)
GCCUCAUUUGCUCUUUGAACGAACCAACAUUAGCCAGUGGAGACGACUGUCUGAGACAGUUUGCACAUAGAAAAAGCAUCUGAGCCACUGGAGGGAAGGAUUUGGCAAAG | 1.81
CCCUGCAGCUAUGAAAGCAGUCACCAGCUAAUUGUGGAAAAGUAUCAGGAGAUUCAAAUUCUUGGCUGUUUCAGAACUCUUGAGCUCAGUCAGGCAGGGAUGUUUUUAAA | 0.337
GAGAAAUAGGAACACUUUCACACUGUUGGUGGGACUGUAAACUAGUUCAACCAUUGUGGAAGUCAGUGUGGCGAUUCCUCAGGGAUCUAGAACUGGAAACACCAUUUGAC | 0.278
GGCACAUGCUCGGUUUGGCCAGUAGAAUUUGUAUUUAUGCUUUUUUUUUCCCCAAAAGUAUUUUAAUUUCUCUACCAAAGGGGGAAAAGAAAGCAGGCUGAGGUUAUUAU | 0.601
CUGUCGCUGCUUUUUGUCCUCUGCCGUGUUUGCGCGGCCUCAGUGCCCUCCCUGGUGCGUCUGCGCUGGGGCCCUCAGUGCUCGGGGCCUUGGGGUGCAUGGGUGCCGCC | 0.728
CAACAGAAUGUCCGACAGCAUCCUUUAAAACUUAAAGAGAAAGACAACUUUGCAGAAAGAGACACAGCUGGCUCUCUGCAGUGGUGUCCUCUCUGUUGCGUGUGUCGAGA | 0.461
UGAUGGCUUGUGUACAGACAAGCAUUUAUCCAGGUUGCGUUAUCCAAACUGAUUUGUUAAAGCUCCAGGUCACGUUCUUACACUAAGAAAAUCAUUCAGUAAACAUGAGA | 0.614
AAAACACAAACCUUUUGGGUUAAAAGCUUUAACAUCUAUUAGGAAGAAUUUGUCCUGUGGGUUUGGAAUCUUGGAUUUUCCCCCUUUAUGAACUGUACUGGCUGUUGACC | 0.469
CCCUCUGCAGGCCGACGGCAGGAGGACAGUCGGGUGAUGGUGUAUUCUGCCCUGCGCAUCCCACCCGAGGACUGAGGGAACCUAGGGGGGACCCCUGGGCCUGGGGUGCC | 0.797
UUUGUCAGGAUAACGUCAUAUAGCAUCUUGUUUGUUUUUCCUUAUCUCUAUGUACAUAUCUAUCUACUUCUGACUGUAGAUGGGUAUAUAGAUAGAUGCCAAGCUUCUUA | 1.87
AACUUCGCCCAGUCACAGUGUUGUGACAUCCUAGAGGCUUGAGUGACAGCAGGUGACCUUGUCUGCCAAGAUCUUCCUUUUGAGUGUUUAAGCCCAACUACUUGUCAUAU | 0.228
GCCCUUAAGUCCAGCGAGGAAAGCUCGGUGUGGGCCCGCUCUACGCUCCGUUUGGGGUGACCUGGAACGCCUCUUCUCCCAGCUCCCUCCAGCCAUCAGCAGCCUCUUGU | 0.344

Set 3 — technique: RNA Bind-n-Seq; molecule type: RNA; matrix: in vitro; tested at: 200 nM; setting: whole 134-nt RNA, ends assumed; with: 150 mM LiCl; relative to: input library; direction: higher = stronger binding; library: 7-deaza-guanosine replaces G
Target: Fragile X messenger ribonucleoprotein 1, C-terminal low-complexity region (Fmr1, Mus musculus, UniProt P35922)
All sequences stand within: GGGAGUUCUACAGUCCGACGAUC … UGGAAUUCUCGGGUGUCAAGG
Strand | log2 enrichment
UCCUAGUCCUAGGAAAACUCCAGUUGCCAGUGAUCAACGCCGUAGGUCCUGCAAAACAGCCCCUGCUUCCAGCAGCAAAUCUCAGACAGA | -0.316
GCAGGAAGUAAAAACAAAUGGAAAUGCUUCGGAUAGUGGCUGGGGUGGGGGUUGCUAAGGAAAGGGUGGGAUGGGAGUGGGUAAAGAGUU | 1.76
UCCUGUGCUACACAUCGUAUGUACCGAAUCGGGGAAAGGGGUUUGGGGAAAAAAAGGGGAAAGUAUUAUGUUACGCCGUUCGGAUCUGCA | -1.53
GUCCUGUGCUACACAUCGUAUGUACCGAAUCGGAAAAAAAGGUUUUUUUGGUUUUUGGAAAGUAUUAUGUUACGCCGUUCGGAUCUGCAC | -2.91
AGUCCUGUGCUACACAUCGUAUGUACCGAAUCAAACCCCCAAACCCCCAAAUUUAAAAAAGUAUUAUGUUACGCCGUUCGGAUCUGCACU | 1.3
CCUCAAGUCCUGUGCUACACAUCGUAUGUACCGAAUCGGUGGGUGGGUGGGGAAAGUAUUAUGUUACGCCGUUCGGAUCUGCACUUCCAG | -0.0698
UAACUUUAGAGGAGGAUCUGAUGGAUAUGGCAGUGGACGUGGAUUUGGGGAUGGCUAUAAUGGGUAUGGAGGAGGACCUAGAGGUGGCAA | -0.164
GGCACCCUUUGAAGGGGAGGAUGAAGAUGAACUCUUCCAAUCCAUCAUGGAACACAACGUAGCCUAUCCCAAGUCUAUGUCCAAGGAAGC | 0.949
CAAGUCCUGUGCUACACAUCGUAUGUACCGAAUCGGGUUUUUGGGAGGGAAAGGGAAAGUAUUAUGUUACGCCGUUCGGAUCUGCACUUC | -0.491
UUUAGUGACUUUGGAUGAAGUAACUGAAGAGGAUGAAGACUCUCUGGCGGAUUUUAACAACCUUAAAGAAGAGCUUAAUUUUGUUACUGU | -3.89
CUGUGCUACACAUCGUAUGUACCGAAUCGGGGUUUUUUGGGGUUUUUUGGGUUUUUUGGGGAAAGUAUUAUGUUACGCCGUUCGGAUCUG | 1.3

Set 4 — technique: RNA Bind-n-Seq; molecule type: RNA; matrix: in vitro; tested at: not given; setting: RNA with constant flanks, ends assumed; relative to: input RNA pool; direction: higher = stronger binding
Target: RING finger protein unkempt homolog, zinc fingers 1-6, GST-SBP tag (UNK, Homo sapiens, UniProt Q9C0B0, residues 30-357)
All sequences stand within: GGGAGUUCUACAGUCCGACGAUC … CAACAGAGGAUUGAGCAUCA
Construct (chain): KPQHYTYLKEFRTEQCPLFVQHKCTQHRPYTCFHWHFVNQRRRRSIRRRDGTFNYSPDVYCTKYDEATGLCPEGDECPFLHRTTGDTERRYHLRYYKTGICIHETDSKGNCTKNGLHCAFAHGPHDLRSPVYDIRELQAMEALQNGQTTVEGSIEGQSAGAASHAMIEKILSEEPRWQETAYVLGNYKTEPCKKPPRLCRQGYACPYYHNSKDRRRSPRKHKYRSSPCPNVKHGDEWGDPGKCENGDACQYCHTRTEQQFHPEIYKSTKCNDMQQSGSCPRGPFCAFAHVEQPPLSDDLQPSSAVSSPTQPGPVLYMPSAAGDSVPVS
Strand | bound/input enrichment [ratio]
UUACAAAGCCAUCUUUACAUGCAUUAAACGAGGGCUACAACAAUAUUGUUUUACAAAUACCCGCACUUUUUUUUCUGUUAUGUACUUAGUGUUAGAGGGUCAAAAUAAUCUUUCUGCUUA | 1.06
UCUGGCGUGCCCCUCUUUUAUUUCUUCAACUGGAAUUUUCUCCUUCUACGCACCCUGCAGUCCGUCCUCGAAAGCAUGGACUCAUGGCUGUCGCCAACCCCACUGACACAGUCUGUCCUA | 0.367
UGAAAAUGCUUUCGAGAGACUACUGGACAUUAUUUCAGAGGAGGGGAACAGUGAUGGAGGUACCGCCGUUGAAGAUUGUUUGAUUUUGCUCCAAAACUUAUUAAAAAACAACAACUCCAA | 0.307
GUGAAGAGAAACAAUUUCUAGCCUUCUUGCCAAAUCCAGACCUCUGGUUGACUUUUCUUUCACCGAAGAUGGAGUUAUCUUCCAGUUUUCCAACUUAAAUUUAUUUAGCCUUUAUAUUAU | 480
GUGUGCAAAAGCAAGAAGUCUUGGCAAGCGAGGCACACUGGUAUUAAGAUUGUACAACAGACCGCCAUUCUCAUGGGCUGUGCUAUCUUGCCACAUCUCAGAAGUUUGGUUGAAAUCAUU | 0.0557
AUGGUUCUUAAAGAUGUGGGAUUGAAAAAAGAAGAUAUUGCAAUGUGGGAAGUAAAUGAAGCCUUCCGUCUGGUUGUACUAGCAAACAUUAAAAUGUUGGAGAUUGAUCCCCAAAAAGUG | 0.359
CGCUGCCGUGUGGGCCAAUGGGUGCGCAUGGAGAAUGUAACAGUGCUGGGUGAAGAUGUCACCGUUAAUGAUGAACUGUACCUCAAUGGAGCCAGCGUGCUGCCCCACAAGUCUAUCGGG | 0.114
AUUUAUAUUUGUGAAAAAUGCCACUGUCCUAGUGAUUUCUGAUGUAAAUAAUGUUGUUUAUACCGUAUGUAUUAAAUUUUCCUACAUUGUAAAACUGCUGUACUUUUGAUUCUUGUAUAU | 0.183
UCCUGUGUUAGGGGGGGUCUGGCUUUUUCUGGAGGUAACUAGGGUGAUGAAAACGUAUCCUCCGGCGUGGUUAUGGCCGUCUUGGCCACCUGUACACCACUUGCCAAUGCAAGGACUUGU | 0.961
AUUAGAAAUGAUACUUUCAGUGACUCUCCAGUUUGGCCCUGGAUCCCAUCUUUGUCUGAUACCGCAGCUGUAUUCUUCAACAUGGGCGUUGGUUUUGGAUCUUUGUUUCCUCUGGAGACU | 0.529
CCAAGUGAUUCAUUCCAAGGACAGGCAGCCCAGUCUGGUGUUUGGAAUGACGACAGUAUGUCCGGGCCUAGUCAAAAUUUUGAAGCUGAGUCAAUUCAAGAUAAUGCGCAUAUGGCAGAG | 0.274

A few entries again (set 4):
Strand | bound/input enrichment [ratio]
UGAAAAUGCUUUCGAGAGACUACUGGACAUUAUUUCAGAGGAGGGGAACAGUGAUGGAGGUACCGCCGUUGAAGAUUGUUUGAUUUUGCUCCAAAACUUAUUAAAAAACAACAACUCCAA | 0.307
GUGAAGAGAAACAAUUUCUAGCCUUCUUGCCAAAUCCAGACCUCUGGUUGACUUUUCUUUCACCGAAGAUGGAGUUAUCUUCCAGUUUUCCAACUUAAAUUUAUUUAGCCUUUAUAUUAU | 480
GUGUGCAAAAGCAAGAAGUCUUGGCAAGCGAGGCACACUGGUAUUAAGAUUGUACAACAGACCGCCAUUCUCAUGGGCUGUGCUAUCUUGCCACAUCUCAGAAGUUUGGUUGAAAUCAUU | 0.0557
AUGGUUCUUAAAGAUGUGGGAUUGAAAAAAGAAGAUAUUGCAAUGUGGGAAGUAAAUGAAGCCUUCCGUCUGGUUGUACUAGCAAACAUUAAAAUGUUGGAGAUUGAUCCCCAAAAAGUG | 0.359
CGCUGCCGUGUGGGCCAAUGGGUGCGCAUGGAGAAUGUAACAGUGCUGGGUGAAGAUGUCACCGUUAAUGAUGAACUGUACCUCAAUGGAGCCAGCGUGCUGCCCCACAAGUCUAUCGGG | 0.114
